Assay results gathered from unrelated publications.
Lines come from different studies, so protocols differ. ± marks the error that the study gave.
Cell line: A549

Brc1ccc(Nc2nc(NN=Cc3c[nH]c4ccccc34)nc(-n3ccnc3)n2)cc1 gave an IC50 of 1.25 µM (cell growth or viability, SRB; 5 days).
For CCCC(=O)Oc1c(C)c(OC)c2c(/C=C/c3ccccc3)c(CC)c(=O)oc2c1C, the IC50 was over 50 µM (cell growth or viability, SRB; 72 h).
For O=C1c2ccc3c4cccc5c(N6CCNCC6)ccc(c6ccc(c2c36)C(=O)N1CCN1CCCCC1)c54, the IC50 was 36.9 µM (cell growth or viability, SRB; 72 h).
The IC50 of COCCSc1nc(N)c2c(F)c(C#N)c(F)c(Cl)c2n1 is reported as 7.48 µM (cell growth or viability, MTT; 96 h).
With COc1c(OC(C)=O)cc2oc3cc(OC(C)=O)c(CC=C(C)C)c(O)c3c(=O)c2c1CC=C(C)C the IC50 was 11.6 µM (cell growth or viability; 48 h).
N#Cc1cccc(-c2ccc(=O)n(Cc3cccc(-c4ncc(OCC5CCN(CC(=O)NCCOCCNc6ccc7c(c6)C(=O)N(C6CCC(=O)NC6=O)C7=O)CC5)cn4)c3)n2)c1 (stereo not shown) gave an IC50 of 0.511 µM (cell growth or viability, CCK-8; 72 h).
The IC50 of Cc1c(C)c(C)[c-](C)c1C.Fc1c[c-]c(-c2ccccn2)cc1.[Cl-].[Ir+3] is reported as 2.1 ± 0.3 µM (SRB; 24 h, 72 h recovery).
The IC50 of [Cl-].[Cl-].[Ru+2].c1ccc(-c2cccc(-c3ccccn3)n2)nc1.c1ccc2nc(-c3ccc4ccccc4n3)ccc2c1 is reported as 42.5 µM (cell growth or viability; 72 h, dark).
O=C1N=C(N2N=C(c3cccs3)CC2c2ccc(F)cc2)SC1=Cc1ccc(O)cc1 (stereo not shown) has an IC50 of 8.1 µM (cell growth or viability, MTT).
O=C1c2cccc3cccc(c23)C12NC(Cc1ccc(O)cc1)C([N+](=O)[O-])C2c1ccc(Br)cc1 (stereo not shown) has an IC50 of 33.6 µM (cell growth or viability, MTT; 48 h).
The IC50 of [Cl][Cu][Cl].c1ccc(-c2nnc(-c3ccc4c(c3)OCO4)[nH]2)nc1 is reported as 4.17 µM (cell growth or viability, MTT; 24 h).
Cc1cc(C)c([N+]#[C][Pd-]([Cl])([Cl])=[C](Nc2cccc(CN[C](NC(C)(C)C)=[Au][Cl])c2)Nc2c(C)cc(C)cc2C)c(C)c1 has an IC50 of over 100 µM (cell growth or viability).
COC(=O)[C@H](C(C)C)N(C)C(=O)[C@@H]1CCCN1C(=O)[C@H](C)N(C)C(=O)OC(C)(C)C has an IC50 of 6 µM (cell growth or viability, SRB).
For CC1=NNC(c2cn(CC(=O)Nc3nc(-c4ccccc4)cs3)nn2)C1 (stereo not shown), the IC50 was 0.213 µM (cell growth or viability, MTT; 72 h).
For COc1ccc(C2=NN(C3=NC(=O)/C(=C/c4ccc(Cl)cc4)S3)C(c3ccc(F)cc3)C2)cc1 (stereo not shown), the IC50 was 89 µM (cell growth or viability, MTT).
The IC50 of C[OH+][Cu-2]12[O]C(c3cn(-c4ccccc4)nc3-c3ccccc3)=N[N+]1=C(C)c1c(cc(C)oc1=O)[O]2 (stereo not shown) is reported as 7.81 µM (cell growth or viability, MTT; 48 h).
The IC50 of CCCC(CCC)C(=O)[O][Pt]1([O]C(=O)C(CCC)CCC)[O]C(=O)C(=O)[O]1.NC1CCCCC1N is reported as 20.5 µM (cell growth or viability).
The IC50 of C[O][Pt-2]1([Cl])([Cl])([O]C(=O)CCC(=O)OCCOC(=O)CCC(=O)[O][Pt-2]2([Cl])([Cl])([O]C)[NH2+]CC[N+]2(C)C)[NH2+]CC[N+]1(C)C is reported as 193 µM (cell growth or viability, MTT; 96 h).
CC(=O)OC[C@@]12CCC[C@@](C)(CO)[C@H]1CC[C@@]13C[C@@H](C[C@H](O)[C@H]12)[C@H](C)C3=O gave an IC50 of over 20 µM (cell growth or viability, MTT).
COC1=C(OC)C(O)C(CC=C(C)CCC=C(C)CCC=C(C)C(=O)O)C(C)C1=O (stereo not shown) has an IC50 of 10.8 µM (cell growth or viability, MTS; 12 h).
The IC50 of S=c1n(-c2ccccc2)c2c3ccccc3nc3[n+]2[n]1[Ir-3]12([S]3)([c]3cccc4ccc5ccc[n+]1c5c34)[c]1cccc3ccc4ccc[n+]2c4c13 is reported as over 50 µM (cell viability, MTT; dark).
The IC50 of C#Cc1cccc(Nc2ncnc3cc(OCCOC)c(OCCOC)cc23)c1 is reported as over 20 µM (cell growth or viability, trypan blue).
For Oc1ccc(C(=NNc2ccccc2)c2ccc(O)cc2)cc1, the IC50 was 34.4 µM (cell growth or viability, ATP luminescence; 72 h).
Nc1nc(-c2ccc(Cl)cc2)c(C(=O)c2ccccc2)[nH]1 has an IC50 of 0.247 µM (cell growth or viability, SRB; 24 h).
With Cl.[Cl][Ru-]1[S+]=C(N2CCCC2)N[N+]1=Cc1ccc(N(c2ccccc2)c2ccccc2)cc1.c1ccccc1 the IC50 was 7.24 ± 5.4 µM (cytotoxicity, MTT; 24 h).
For COc1ccc(/C=C/C2=[N+]3C(=C(C=O)c4c(C)c(Br)c(/C=C/c5ccc(OC)cc5)n4[B-]3(F)F)C(C)=C2Br)cc1, the IC50 was 6.3 ± 2.7 µM (phototoxicity, resazurin; together with: 645 nm light, 9.00 J/cm2).
The IC50 of COCC12CN(C)C3C4C(OC)C1C3(C(OC)CC2O)C1(O)CC2(O)C(OC)C(O)C4(O)C1C2OC(=O)c1ccccc1 (stereo not shown) is reported as 17.1 µM (cell growth or viability, MTT).
CCCCCC(=O)NCCNC(=O)[C@@]1(C)[C@H](O)CC[C@@]2(C)[C@H]1CC[C@]1(C)[C@@H]2C(=O)C=C2[C@@H]3[C@@H](C)[C@H](C)CC[C@]3(C)CC[C@]21C has an IC50 of 28.8 µM (cell growth or viability, MTT; 48 h).
The IC50 of O=C1CCCC2=C1C(c1cccs1)c1c([nH]c(=S)[nH]c1=S)O2 (stereo not shown) is reported as 15.6 µM (cell growth or viability, MTT; 72 h).
With CCCCCCC(=O)NCCNC(=O)[C@]1(C)[C@@H]2CC[C@]3(C)[C@H](C(=O)C=C4[C@@H]5[C@@H](C)[C@H](C)CC[C@]5(C)CC[C@]43C)[C@@]2(C)CC[C@H]1OC(C)=O the IC50 was 16.4 µM (cell growth or viability, MTT; 48 h).
Cc1ccc(C(C)C)cc1.F[P-](F)(F)(F)(F)F.O=C(N=P(c1ccccc1)(c1ccccc1)c1ccccc1)c1ccccn1.[Cl-].[Ru+2] has an IC50 of 9.9 µM (cell growth or viability, MTT; 24 h).
With COC(C)(C)/C=C/C[C@@](C)(O)[C@H]1CC[C@]2(C)[C@@H]1CC[C@@H]1[C@@]3(C)CCC(=O)C(C)(C)[C@@H]3CC[C@]12C the IC50 was 31.1 µM (cell growth or viability, SRB).
For N#Cc1c(F)c(F)c2nc(SCc3ccc4ccccc4c3)nc(N)c2c1F, the IC50 was 26.4 µM (cell growth or viability, MTT; 96 h).
The IC50 of CCn1[c]([Au-][Cl])[n+](CC)c2ccc(C(=O)OC)cc21 is reported as 24 µM (cell growth or viability, crystal violet; 72 h).
CN1CCC2(CC1)C/C(=N\NC(=O)Nc1ccc(Cl)cc1)c1ccccc1O2 gave an IC50 of 8.03 µM (cell growth or viability, MTT; 48 h).
O=C1c2cccc3cccc(c23)C12NC(Cc1ccc(O)cc1)C([N+](=O)[O-])C2c1cccc([N+](=O)[O-])c1 (stereo not shown) gave an IC50 of 81.2 µM (cell growth or viability, MTT; 24 h).
c1ccc(-c2nn(-c3nc4ccccc4s3)[n+](-c3ccccc3)n2)cc1 has an IC50 of 41 ± 3 µM (cell growth, resazurin).
With COc1ccc2cc([C@H](C)C(=O)[O][Pt-2]34([O]C(=O)[C@@H](C)c5ccc6cc(OC)ccc6c5)([NH2+][C@@H]5CCCC[C@H]5[NH2+]3)[O]C(=O)C(=O)[O]4)ccc2c1 the IC50 was 10.2 ± 1 µM (cell growth, MTT; 48 h).
With O=C(N=P12CN3CN(CN(C3)C1)C2)c1cccc[c]1[Au]([Cl])[Cl] the IC50 was over 125 µM (cell growth or viability, MTT; 24 h).
For [Cl-].[Cl-].[Ru+2].c1ccc(-c2ccccn2)nc1.c1ccc(-c2ccccn2)nc1.c1ccc(-c2ccnc3c2ccc2c(-c4ccccc4)ccnc23)cc1, the IC50 was 0.5 µM (maximal respiration, oxygen consumption, Seahorse extracellular flux; together with: indigo light 450 nm).
The IC50 of Cc1cccc2c1NC(=O)C21C2=C(COC2=O)NC2=C1C(=O)c1ccccc1C2=O (stereo not shown) is reported as 2.28 µM (cell growth or viability, MTT; 72 h).
CC1=CC(C)=[O+][Pt-2]([NH3+])([NH3+])[O]1.CC1=CC(C)=[O+][Pt-2]([NH3+])([NH3+])[O]1.O=S(=O)([O-])[O-] (stereo not shown) has an IC50 of 28 µM (cell growth or viability, MTT).
CC1=CC(C)=[N+]2C1=C(CO)c1c(C)cc(C)n1[B-]2(F)F gave an IC50 of over 100 µM (cell growth or viability, resazurin; dark).
The IC50 of Cc1ccc(C(C)C)cc1.Oc1ccccc1C=NNC1=Nc2ccccc2-c2[nH]c3ccc(Br)cc3c2C1.[Cl-].[Cl][Ru+] is reported as 3.1 µM (cell growth or viability, MTT; 96 h).
The IC50 of OC[C@H]1[C@@H](O)[C@@H](O)CN1CCc1ccccc1 is reported as over 200 µM (cell growth or viability, MTS; 72 h).
With Cc1cc(C#N)cc(C)c1Oc1cc(Nc2ccc(C#N)cc2)nc2ccncc12 the IC50 was over 128 µM (48 h).
With Cc1cc(C)c(N=[C](NCc2cccc(N)c2)[AuH][Cl])c(C)c1 the IC50 was over 100 µM (cell growth or viability).
CC(=O)O[C@@H]1CC[C@@]2(C)[C@@H](CC[C@]3(C)[C@@H]2C(=O)C=C2[C@@H]4[C@@H](C)[C@H](C)CC[C@]4(C)CC[C@]23C)[C@@]1(C)C(=O)NCCNC(=O)CC[P+](c1ccccc1)(c1ccccc1)c1ccccc1 has an IC50 of over 30 µM (cell growth or viability, MTT; 48 h).
N#Cc1cccc(-c2ccc(=O)n(Cc3cccc(-c4ncc(OCC5CCN(CC(=O)N6CCN(c7ccc8c(c7)C(=O)N(C7CCC(=O)NC7=O)C8=O)CC6)CC5)cn4)c3)n2)c1 (stereo not shown) has an IC50 of 0.377 µM (cell growth or viability, CCK-8; 72 h).
C=CC(=O)Nc1cc(Nc2nccc(-c3c(-c4ccc(Cl)cc4)n(C)c4ccccc34)n2)c(OC)cc1N(C)CCN(C)C gave an IC50 of 0.415 µM (cell growth or viability, MTT; 72 h).
COc1c(O)cc2oc3cc4c(c(O)c3c(=O)c2c1CC=C(C)C)CC(O)O4 (stereo not shown) gave an IC50 of 18 µM (cell growth or viability; 48 h).
With CC(C)c1cccc(C(C)C)c1[N+]#[C][Pt-]([Cl])([Cl])=[C](Nc1cccc(CN[C](NC(C)(C)C)=[Au][Cl])c1)Nc1c(C(C)C)cccc1C(C)C the IC50 was over 100 µM (cell growth or viability).
The IC50 of Cc1ccc(C(C)C)cc1.N=C(N)Nc1nc2ccccc2s1.[Cl-].[Cl][Ru+] is reported as 112 µM (cell growth or viability, MTT; 24 h).
For CC(C)c1cccc(C(C)C)c1[N+]#[C][Pd-]([Cl])([Cl])=[C](Nc1cccc(CN[C](NC(C)(C)C)=[Au][Cl])c1)Nc1c(C(C)C)cccc1C(C)C, the IC50 was over 100 µM (cell growth or viability).
CN(C)CCCO/N=C1/C=C2CCC3C(CC[C@]4(C)/C(=C/c5ccccn5)CCC34)[C@@]2(C)CC1 (stereo partly shown) gave an IC50 of 18.9 µM (cell growth or viability, MTT; 72 h).

Excerpt of the above:
The IC50 of [Cl][Cu][Cl].c1ccc(-c2nnc(-c3ccc4c(c3)OCO4)[nH]2)nc1 is reported as 4.17 µM (cell growth or viability, MTT; 24 h).
Cc1cc(C)c([N+]#[C][Pd-]([Cl])([Cl])=[C](Nc2cccc(CN[C](NC(C)(C)C)=[Au][Cl])c2)Nc2c(C)cc(C)cc2C)c(C)c1 has an IC50 of over 100 µM (cell growth or viability).
COC(=O)[C@H](C(C)C)N(C)C(=O)[C@@H]1CCCN1C(=O)[C@H](C)N(C)C(=O)OC(C)(C)C has an IC50 of 6 µM (cell growth or viability, SRB).
For CC1=NNC(c2cn(CC(=O)Nc3nc(-c4ccccc4)cs3)nn2)C1 (stereo not shown), the IC50 was 0.213 µM (cell growth or viability, MTT; 72 h).
For COc1ccc(C2=NN(C3=NC(=O)/C(=C/c4ccc(Cl)cc4)S3)C(c3ccc(F)cc3)C2)cc1 (stereo not shown), the IC50 was 89 µM (cell growth or viability, MTT).
The IC50 of C[OH+][Cu-2]12[O]C(c3cn(-c4ccccc4)nc3-c3ccccc3)=N[N+]1=C(C)c1c(cc(C)oc1=O)[O]2 (stereo not shown) is reported as 7.81 µM (cell growth or viability, MTT; 48 h).
